# Measurements collected from several papers.
SMILES,test system,setting,Tmax
Cc1cccc(O[C@H]2CCC[C@@H](C(C)CNCc3ccncc3)C2)c1 (relative stereo),"female C57BL/6 mouse, plasma","intravenous, 3 mg/kg",4.8 min
CCCc1nc2cc(C(=O)N3CCC4(CC3)CC(=O)c3cc5c(cc3O4)OC(C)(C)CC5)cc(C)c2[nH]1,"male C57BL/6 mouse, plasma","oral, 50 mg/kg",120 min
CN(C)C(CNC(=O)Nc1cc(C(F)(F)F)ccc1N1CCOCC1)c1ccncc1 (stereo not shown),"C57BL/6 mouse, plasma","intraperitoneal, 2 mg/kg, single dose",60 min
Cc1cc(O)cc(O)c1C(=O)c1c2c3c(c(O)cc(C)c3oc1=O)C(=O)c1c(O)cc(O)cc1-2,"male Kunming mouse, plasma","intraperitoneal, 30 mg/kg",15.9 min
CC(C)Cn1c(SCC(=O)N2CCc3ccccc3C2)nc2cc(Cl)ccc2c1=O,"male C57BL/6 mouse, plasma","intraperitoneal, 10 mg/kg",15 min
NS(=O)(=O)NCC(F)(F)c1ccccc1F,"mouse, brain","oral, 5 mg/kg",60 min
CN1CCc2cc(Nc3ncc(C(F)(F)F)c(NCc4cc[nH]n4)n3)ccc2C1,"C57BL/6 mouse, plasma","oral, 50 mg/kg, single dose",50 min
CN1CCC(N[C@@H]2CCc3[nH]c4c(C(N)=O)ccc(-c5ccccc5Cl)c4c3C2)CC1,"mouse, plasma","intravenous, 2 mg/kg",1.98 min
COC(=O)C1OC(Oc2c(-c3ccccc3)oc3cc(O)c(O)c(O)c3c2=O)C(O)C(O)C1O (stereo not shown),"BALB/c mouse, plasma","oral, 10 mg/kg, single dose",15 min
CCC(=C(c1ccc(Cl)cc1)c1ccc(OCCN2CCOCC2)cc1)c1ccc(OC)cc1,"male C57BL/6 mouse, plasma","oral, 400 mg/kg, single dose",240 min
CCOc1c(C(C)(C)O)sc2cnc(Nc3ccc(N4CCC(N5CC6(COC6)C5)CC4)cc3OC)nc12,"male C57BL/6 mouse, plasma","oral, 10 mg/kg",60 min
Cn1ccc2cc(-n3c(=O)[nH]c4sc5c(c4c3=O)CCCC5)ccc21,"C57BL/6 mouse, plasma","intraperitoneal, 10 mg/kg",15 min
O=C1OC2(c3ccccc31)c1cc(I)c(O)c(I)c1Oc1c2cc(I)c(O)c1I,"female C57BL/6 mouse, plasma","oral, 100 mg/kg",24 min
Cc1nc(NC(=O)N2CCC[C@H]2C(N)=O)sc1-c1csc(C(C)(C)C)n1,"male CD-1 mouse, plasma","intraperitoneal, 10 mg/kg, single dose",30 min
N#Cc1cnc2cc(OCC3CCNCC3)c(F)cc2c1Nc1cc(F)c(OCc2cccc(Cl)n2)cc1Cl,"female CD-1 mouse, plasma","oral, 20 mg/kg",102 min
CCCCCCCCCCCCCCCC(=O)N[C@@H](CCC(=O)N[C@@H](CCC(=O)NCCCC[C@H](NC(=O)[C@H](CC(=O)O)NC(=O)[C@H](CO)NC(=O)[C@@H](NC(=O)[C@H](Cc1ccccc1)NC(=O)[C@@H](NC(=O)CNC(=O)[C@H](CCC(N)=O)NC(=O)C(C)(C)NC(=O)[C@@H](N)Cc1c[nH]cn1)[C@@H](C)O)[C@@H](C)CC)C(=O)N[C@@H](CO)C(=O)N[C@@H](CCCCN)C(=O)N[C@@H](Cc1ccc(O)cc1)C(=O)N[C@@H](CC(C)C)C(=O)N[C@@H](CC(=O)O)C(=O)NC(C)(C)C(=O)N[C@@H](CCCNC(=N)N)C(=O)N[C@@H](C)C(=O)N[C@@H](C)C(=O)N[C@@H](CCC(N)=O)C(=O)N[C@@H](CC(=O)O)C(=O)N[C@@H](Cc1ccccc1)C(=O)N[C@H](C(=O)N[C@@H](CCC(N)=O)C(=O)N[C@@H](Cc1c[nH]c2ccccc12)C(=O)N[C@@H](CC(C)C)C(=O)N[C@@H](CCSC)C(=O)N[C@@H](CC(=O)O)C(=O)N[C@H](C(=O)O)[C@@H](C)O)C(C)C)C(=O)O)C(=O)O,"male C57BL/6 mouse, plasma","subcutaneous, 10 nmol/kg, single dose",180 min
O=C(C=CC(Cc1ccccc1)Nc1ccnc2cc(Cl)ccc12)NCCN1CCOCC1 (stereo not shown),"female CD-1 mouse, plasma","oral, 5 mg/kg, single dose",60 min
CCCCCCCCN(CCC(=O)Nc1ccccc1)C(=O)c1ccccn1,"C57BL/6 mouse, serum","intraperitoneal, 40 mg/kg",300 min
C[N+]1(CC(=O)OC2CCCCCCCCCCC2)CCCCC1,"mouse, plasma","intraperitoneal, 2.5 mg/kg, single dose",30 min

# A few entries again:
SMILES,test system,setting,Tmax
CCOc1c(C(C)(C)O)sc2cnc(Nc3ccc(N4CCC(N5CC6(COC6)C5)CC4)cc3OC)nc12,"male C57BL/6 mouse, plasma","oral, 10 mg/kg",60 min
CC(C)Cn1c(SCC(=O)N2CCc3ccccc3C2)nc2cc(Cl)ccc2c1=O,"male C57BL/6 mouse, plasma","intraperitoneal, 10 mg/kg",15 min
N#Cc1cnc2cc(OCC3CCNCC3)c(F)cc2c1Nc1cc(F)c(OCc2cccc(Cl)n2)cc1Cl,"female CD-1 mouse, plasma","oral, 20 mg/kg",102 min
